Assay results of several laboratories.
Each numbered part is a random draw from the data of one study; scales do not carry over between parts. Changes are numbered by the printed parent chain.

Study 1
Target: Interferon regulatory factor 7, full length, phosphomimetic (IRF7, Homo sapiens, UniProt Q92985, residues 1-503, S471D/S472D/S475D/S476D/S477D/S483D/S484D/S487D)
Chain of UniProt Q92985 (whole entry, unmodified, looked up): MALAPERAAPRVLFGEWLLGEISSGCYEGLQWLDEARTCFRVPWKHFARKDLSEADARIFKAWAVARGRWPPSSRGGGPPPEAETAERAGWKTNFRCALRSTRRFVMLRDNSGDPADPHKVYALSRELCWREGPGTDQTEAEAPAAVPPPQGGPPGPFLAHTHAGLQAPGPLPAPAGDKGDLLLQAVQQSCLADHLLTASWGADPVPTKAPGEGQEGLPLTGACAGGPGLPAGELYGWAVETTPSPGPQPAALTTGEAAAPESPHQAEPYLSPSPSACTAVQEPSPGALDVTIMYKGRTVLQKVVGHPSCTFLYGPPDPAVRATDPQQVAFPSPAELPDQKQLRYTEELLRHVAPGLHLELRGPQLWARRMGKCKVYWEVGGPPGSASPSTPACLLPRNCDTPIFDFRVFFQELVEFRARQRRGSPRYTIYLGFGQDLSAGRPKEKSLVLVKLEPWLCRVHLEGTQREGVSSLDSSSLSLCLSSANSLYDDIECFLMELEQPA
Technique: protein-binding microarray
Molecule type: double-stranded DNA, one strand shown
Matrix: in vitro
Concentration: 2200 nM top
Setting: 60-bp whole probe
With: salmon DNA 0.4 mg/ml
Relative to: random background probes
Direction: higher = stronger binding
Measurement: fitted relative affinity
All sequences stand within: GCCTAGCAC … GTGCTAGGTCTTGATTCGCTTGACGCTGCTG
TTAGGACTGGGAGTGGGTTA: -0.786 z-score
TTAGATCTCAGATTGGATTA: -0.366 z-score
GACGATTTCAGTATCAAGAC: 0.869 z-score
CTAATATTCTGCTTTGCAAT: 1.21 z-score
TTAGGACTGCTTATCGTTTA: 0.392 z-score
TGCAACATCCCAATGGCCCT: 0.451 z-score
AACGATCTCAGTTTCGAGAC: 3.51 z-score
TTAGATCTCAGACAGGATTA: -0.151 z-score
GACGGTTTCGGTTCCGGAAC: 11.4 z-score
CCTAATTCTCTTTTCACTTT: 3.68 z-score
TTAGGTTTCTGACTGGGTTA: 1.2 z-score
TACGGTTTCCTACTGCTGAC: 2.5 z-score
GACGAACTGAGTATCGAGAA: -0.378 z-score

Study 2
Target: CCNA1, cyclin fold, Cln2 fusion (human)
Technique: yeast growth competition, sequencing
Matrix: yeast
Setting: weak parent motif
Relative to: not given
Direction: higher = stronger binding
Measurement: normalised enrichment score
Starting sequence: WEE1 docking peptide (human); HKTFRKLRLFDTP; partner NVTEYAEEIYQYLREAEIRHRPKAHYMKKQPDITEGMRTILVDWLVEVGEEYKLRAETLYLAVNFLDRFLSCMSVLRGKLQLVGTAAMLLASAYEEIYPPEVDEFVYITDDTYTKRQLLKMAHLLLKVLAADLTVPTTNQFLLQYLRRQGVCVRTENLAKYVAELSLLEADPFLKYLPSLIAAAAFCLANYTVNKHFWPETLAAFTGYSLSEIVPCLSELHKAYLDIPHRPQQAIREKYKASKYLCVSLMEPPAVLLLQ
HKTFRKLRLWDTP [F10W]: 0.202
HKTDRKLRLFDTP [F4D]: 0.242
HKTFRKLRLFDTQ [P13Q]: 0.224
HKTFYKLRLFDTP [R5Y]: 0.0896
HKTFRKLRLFDTI [P13I]: 0.381
HKTFRKVRLFDTP [L7V]: 0.177
HKTFRKLRVFDTP [L9V]: 0.365

Study 3
Target: Probable WRKY transcription factor 11, DNA-binding domain (WRKY11, Arabidopsis thaliana, UniProt Q9SV15, residues 228-325)
Technique: DNA-protein interaction ELISA
Molecule type: double-stranded DNA, one strand shown
Matrix: in vitro, bacterial lysate
Concentration: not given
Setting: whole dsDNA probe, crude lysate protein
Relative to: highest signal in screen
Direction: higher = stronger binding
Measurement: relative absorbance
Target sequence (chain): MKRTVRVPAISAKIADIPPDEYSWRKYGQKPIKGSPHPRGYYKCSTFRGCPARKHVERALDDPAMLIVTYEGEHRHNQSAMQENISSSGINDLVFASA
AAAAAACTTCCCTCCTTGTCCTCCCCAAAA: 16.7 % of maximum
AAAAAACCCTAACGAATGCTTTTCGGAAAA: 17.3 % of maximum
AAAAAACGCATCATAGCTACGCCCCAAAAA: 16.1 % of maximum
AAAAAAGGTAGTCACATTACGAGGGTAAAA: 15.3 % of maximum
AAAAAATCGCGAACGTACGTCCGCGGAAAA: 12.4 % of maximum
AAAAAAACCGATTACCATTTTTACTGAAAA: 17 % of maximum
AAAAAATTACTTCTCCCTTCCTTTGCAAAA: 14.1 % of maximum
AAAAAATGATGTTGGCGCATTTAAACAAAA: 12.7 % of maximum
AAAAAAACCGCGTCGCGGCCCGGGAAAA: 12.1 % of maximum
AAAAAATTCTAACTTAGCCTATGTCCAAAA: 16.7 % of maximum
AAAAAATGTCTTCTTACACCCTCTAGAAAA: 18.2 % of maximum
AAAAAATCGCGTCCGTGCTCAATCCAAAAA: 12.7 % of maximum

Other studies, line by line
PhoQ, residues 284 288 289 292 302 303 SMYGEC  fold induction (PhoP, residues 12 14 15 18 19 NQGLL (Escherichia coli, UniProt P23836); Sort-seq, measured: YFP reporter; E. coli; PhoQ-PhoP variant library, with: 10 µM Mg2+; relative to: high Mg2+ state, higher = stronger signaling): 3.53

A few entries again (study 3):
AAAAAATTCTAACTTAGCCTATGTCCAAAA: 16.7 % of maximum
AAAAAATGTCTTCTTACACCCTCTAGAAAA: 18.2 % of maximum
